# Assay results gathered from unrelated publications.
# Lines come from different studies, so protocols differ. Numbers after ± are the reported error.
# gyrB with GyrA: DNA gyrase subunit B, with GyrA (gyrB, Mycobacterium tuberculosis, UniProt P9WG45)
# UniProt P9WG45, sequence (whole entry, looked up): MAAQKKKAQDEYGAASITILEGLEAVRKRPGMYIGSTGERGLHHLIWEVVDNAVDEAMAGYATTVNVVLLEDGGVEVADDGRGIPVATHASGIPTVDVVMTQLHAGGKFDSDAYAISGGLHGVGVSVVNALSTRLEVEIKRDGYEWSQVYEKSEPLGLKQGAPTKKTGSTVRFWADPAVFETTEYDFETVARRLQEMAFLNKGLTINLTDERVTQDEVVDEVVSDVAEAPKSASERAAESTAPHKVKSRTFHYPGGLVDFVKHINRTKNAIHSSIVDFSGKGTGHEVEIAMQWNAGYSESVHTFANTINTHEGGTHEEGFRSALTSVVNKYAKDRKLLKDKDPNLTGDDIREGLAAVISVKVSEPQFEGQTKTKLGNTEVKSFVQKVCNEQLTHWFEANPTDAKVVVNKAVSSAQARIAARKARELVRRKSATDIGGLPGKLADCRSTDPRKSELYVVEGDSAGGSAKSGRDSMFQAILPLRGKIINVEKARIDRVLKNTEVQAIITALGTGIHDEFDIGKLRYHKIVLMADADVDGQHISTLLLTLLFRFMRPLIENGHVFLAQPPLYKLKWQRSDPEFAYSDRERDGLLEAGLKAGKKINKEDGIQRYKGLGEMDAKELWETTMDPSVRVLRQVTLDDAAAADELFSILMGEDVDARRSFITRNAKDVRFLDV
# UniProt P47870, sequence (whole entry, looked up): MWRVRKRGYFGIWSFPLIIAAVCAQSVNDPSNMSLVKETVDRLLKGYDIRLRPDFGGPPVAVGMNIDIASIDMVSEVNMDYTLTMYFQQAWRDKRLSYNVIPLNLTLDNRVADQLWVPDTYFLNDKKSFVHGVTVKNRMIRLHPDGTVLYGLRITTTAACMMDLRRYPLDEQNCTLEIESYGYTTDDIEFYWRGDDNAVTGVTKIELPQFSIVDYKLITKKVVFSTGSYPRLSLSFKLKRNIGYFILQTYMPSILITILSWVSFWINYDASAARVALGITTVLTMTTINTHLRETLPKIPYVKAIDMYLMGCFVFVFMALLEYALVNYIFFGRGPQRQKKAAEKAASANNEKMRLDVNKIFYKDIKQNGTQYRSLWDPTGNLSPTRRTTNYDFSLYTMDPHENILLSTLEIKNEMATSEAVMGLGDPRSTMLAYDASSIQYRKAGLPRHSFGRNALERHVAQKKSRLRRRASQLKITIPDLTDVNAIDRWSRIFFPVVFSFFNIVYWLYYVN
# UniProt P11150, sequence (whole entry, looked up): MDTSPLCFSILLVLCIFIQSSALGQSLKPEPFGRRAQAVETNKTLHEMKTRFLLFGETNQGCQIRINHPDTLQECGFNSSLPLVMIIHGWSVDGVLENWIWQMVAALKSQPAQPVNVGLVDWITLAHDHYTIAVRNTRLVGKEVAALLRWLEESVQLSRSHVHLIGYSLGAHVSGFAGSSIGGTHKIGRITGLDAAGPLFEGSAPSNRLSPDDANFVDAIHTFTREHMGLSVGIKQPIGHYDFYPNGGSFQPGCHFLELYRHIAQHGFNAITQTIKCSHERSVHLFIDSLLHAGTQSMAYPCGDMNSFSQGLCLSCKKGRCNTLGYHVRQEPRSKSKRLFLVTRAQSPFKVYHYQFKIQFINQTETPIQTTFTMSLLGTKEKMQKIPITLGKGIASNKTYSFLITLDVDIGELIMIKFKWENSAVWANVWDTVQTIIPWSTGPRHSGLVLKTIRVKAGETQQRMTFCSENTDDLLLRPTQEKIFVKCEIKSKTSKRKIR
# UniProt P35372, sequence (whole entry, unmodified, looked up): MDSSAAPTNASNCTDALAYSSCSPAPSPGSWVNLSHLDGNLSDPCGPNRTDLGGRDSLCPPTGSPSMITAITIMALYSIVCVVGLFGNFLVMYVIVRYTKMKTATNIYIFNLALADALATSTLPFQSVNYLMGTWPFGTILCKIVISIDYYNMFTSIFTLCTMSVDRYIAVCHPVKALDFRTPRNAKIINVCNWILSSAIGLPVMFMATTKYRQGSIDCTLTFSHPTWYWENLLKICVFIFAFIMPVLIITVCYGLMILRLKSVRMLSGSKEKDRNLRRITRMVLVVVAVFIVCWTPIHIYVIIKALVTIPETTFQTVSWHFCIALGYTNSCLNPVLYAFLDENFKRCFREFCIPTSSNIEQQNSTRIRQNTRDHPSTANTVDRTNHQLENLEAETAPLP
# UniProt P14867, sequence (whole entry, looked up): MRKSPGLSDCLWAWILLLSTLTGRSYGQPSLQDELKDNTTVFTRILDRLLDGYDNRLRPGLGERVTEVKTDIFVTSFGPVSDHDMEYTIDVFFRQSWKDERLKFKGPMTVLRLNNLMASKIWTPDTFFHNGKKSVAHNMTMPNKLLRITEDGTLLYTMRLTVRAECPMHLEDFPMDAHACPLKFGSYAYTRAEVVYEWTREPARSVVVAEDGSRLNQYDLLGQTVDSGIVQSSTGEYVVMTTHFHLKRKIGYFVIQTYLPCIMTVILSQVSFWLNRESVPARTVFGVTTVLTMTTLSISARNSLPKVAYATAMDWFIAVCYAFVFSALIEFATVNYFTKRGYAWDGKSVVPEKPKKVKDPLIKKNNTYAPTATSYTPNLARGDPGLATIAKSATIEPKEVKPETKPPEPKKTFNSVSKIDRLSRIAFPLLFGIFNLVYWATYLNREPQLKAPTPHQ
# UniProt P25929, sequence (whole entry, looked up): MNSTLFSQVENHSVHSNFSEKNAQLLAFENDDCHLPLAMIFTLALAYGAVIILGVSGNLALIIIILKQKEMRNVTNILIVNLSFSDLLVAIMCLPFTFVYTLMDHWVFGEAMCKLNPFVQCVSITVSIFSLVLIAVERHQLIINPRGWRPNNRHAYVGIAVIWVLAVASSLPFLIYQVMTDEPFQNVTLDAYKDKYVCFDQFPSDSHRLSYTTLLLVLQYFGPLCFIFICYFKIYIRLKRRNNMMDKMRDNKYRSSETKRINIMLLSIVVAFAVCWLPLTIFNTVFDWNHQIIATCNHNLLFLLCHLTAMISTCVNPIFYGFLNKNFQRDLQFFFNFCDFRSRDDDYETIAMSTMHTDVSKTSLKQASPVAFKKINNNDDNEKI
# UniProt O00311, sequence (whole entry, looked up): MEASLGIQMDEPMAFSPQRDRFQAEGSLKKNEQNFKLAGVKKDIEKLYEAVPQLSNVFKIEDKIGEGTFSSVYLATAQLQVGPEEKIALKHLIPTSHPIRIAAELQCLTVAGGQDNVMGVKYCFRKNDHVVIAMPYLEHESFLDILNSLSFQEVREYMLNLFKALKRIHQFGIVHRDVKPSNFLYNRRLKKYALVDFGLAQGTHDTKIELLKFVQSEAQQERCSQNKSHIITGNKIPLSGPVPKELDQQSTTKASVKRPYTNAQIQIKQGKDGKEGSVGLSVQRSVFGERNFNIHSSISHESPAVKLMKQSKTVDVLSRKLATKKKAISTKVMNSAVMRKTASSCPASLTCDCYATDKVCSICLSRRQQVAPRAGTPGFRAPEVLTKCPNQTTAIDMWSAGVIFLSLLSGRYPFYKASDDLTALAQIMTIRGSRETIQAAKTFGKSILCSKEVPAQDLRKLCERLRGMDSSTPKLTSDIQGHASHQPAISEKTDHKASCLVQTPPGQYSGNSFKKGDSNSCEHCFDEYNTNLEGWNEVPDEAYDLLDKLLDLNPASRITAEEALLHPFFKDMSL
Compound,tested on,assay,test system,setting,how to read,endpoint,result
C[C@@H]1[C@@H](C)N/C(=C\[N+](=O)[O-])N1Cc1ccc(Cl)nc1,,radioligand binding,Musca domestica head membranes,added: [3H]imidacloprid,,Ki,0.00272 ± 0.00127 µM
O=C(c1ccc(Cl)cc1)N1CCN2C(=O)N(OC(=O)N3CCOc4ccccc43)C(=O)C2C1 (stereo not drawn),"Hepatic triacylglycerol lipase (Homo sapiens, UniProt P11150)","enzyme activity, inhibitor, MS-based ABPP",SW-620 in situ,"10 µM, 2 h, 37 °C","baseline: compound over DMSO, lower = stronger inhibition",median ratio,1.1
COc1cc(Nc2ncc(F)c(Nc3ccc4c(n3)NC(=O)C(C)(C)O4)n2)cc(OC)c1OC,"Neuropeptide Y receptor type 1 (NPY1R, Homo sapiens, UniProt P25929)",,,,,IC50,> 10 µM
CC[C@H](C)[C@@H]1NC(=O)[C@@H]2CCCN2C(=O)[C@H](CC(C)C)NC(=O)[C@H](CC(C)C)NC(=O)CNC(=O)[C@@H](NC(=O)[C@@H](NC(=O)[C@H](CC(=O)O)NC(=O)CNC(=O)[C@@H](NC(=O)[C@H](C)NC(=O)CNC(=O)[C@H](CCCCN)NC(=O)[C@H](CC(C)C)NC(=O)[C@H](CC(C)C)NC(=O)[C@H](CCCCN)NC(=O)CNC(=O)[C@@H](NC(=O)[C@@H](N)CC(C)C)C(C)C)C(C)C)C(C)C)CSSC[C@@H](C(=O)O)NC1=O,,"RNA-seq, measured: Mrpl54","mouse, traumatic brain injury model, frontal cortex and hippocampus",dose not given,baseline: TBI alone,log2 fold change,-0.722
CC[C@H](C)[C@H](NC(=O)[C@H](Cc1ccccc1)NC(=O)[C@H](CCC(=O)O)NC(=O)[C@H](CCCNC(=N)N)NC(=O)[C@H](C)NC(=O)[C@H](C)NC(=O)[C@H](CCC(N)=O)NC(=O)[C@H](CCC(=O)O)NC(=O)[C@H](CCC(=O)O)NC(=O)[C@H](CC(C)C)NC(=O)[C@H](Cc1ccc(O)cc1)NC(=O)[C@H](CO)NC(=O)[C@H](CO)NC(=O)[C@@H](NC(=O)[C@H](CC(=O)O)NC(=O)[C@H](CO)NC(=O)[C@@H](NC(=O)[C@H](Cc1ccccc1)NC(=O)[C@@H](NC(=O)CNC(=O)[C@H](CCC(=O)O)NC(=O)[C@H](C)NC(=O)CCc1c[nH]cn1)[C@@H](C)O)[C@@H](C)O)C(C)C)C(=O)N[C@@H](C)C(=O)N[C@@H](Cc1c[nH]c2ccccc12)C(=O)N[C@@H](CC(C)C)C(=O)N[C@H](C(=O)N[C@@H](CCCNC(=N)N)C(=O)NCC(=O)N[C@@H](CCCNC(=N)N)C(=O)N[C@@H](CCCCNC(=O)COCCOCCNC(=O)COCCOCCNC(=O)CC[C@H](NC(=O)CCCCCCCCCCCCCCCCC(=O)O)C(=O)O)C(=O)NCC(=O)NCC(=O)N[C@@H](CO)C(=O)N[C@@H](CCCCNc1c(NCCCCCN(O)C(=O)CCC(=O)NCCCCCN(O)C(=O)CCC(=O)NCCCCCN(O)C(C)=O)c(=O)c1=O)C(=O)O)C(C)C [zirconium-89 labelled],,,"rat, duodenum content","intravenous, 3 nmol/kg, 72 h",,tissue uptake,0.03 %ID/g
COc1cc2c(Oc3ccc4[nH]c(C)cc4c3F)ccnc2cc1OCC1(N)CC1,,,paediatric recurrent refractory sarcoma,"concentration not given, whole group",,grade 1 or 2 Hyperuricemia,8.8%
CC[C@@H](c1cccc(O)c1)[C@@H](C)CN(C)C,"Mu-type opioid receptor (OPRM1, Homo sapiens, UniProt P35372, N40D)",agonist,human cells,"N40D receptor, receptor depletion by β-CNA",,EC50,2.51 µM
CC(C)(C)OC(=O)N1CCN(C(=O)CCc2c(C(=O)N3CCN(C(=O)OC(C)(C)C)CC3)[nH]c3cc(C(F)(F)F)c(Cl)cc23)CC1,gyrB with GyrA,inhibitor,,,,IC50,> 500 µM
COc1ccc(NC(=O)N2CCCCN3[C@H](CN(C)C)[C@H](c4ccc(C#Cc5ccccc5)cc4)[C@@H]3C2)cc1,Toxoplasma gondii,"parasite growth, luciferase reporter","HFF host cells, tachyzoites",72 h,,EC50,0.11 µM
O=C(CCc1c(C(=O)N2CCOCC2)[nH]c2ccc(Cl)cc12)N1CCOCC1,gyrB with GyrA,inhibitor,,,,IC50,> 500 µM
C[C@H]1CN(c2n[nH]c3nc(N[C@H]4CC[C@H](NS(=O)(=O)CCC(F)(F)F)CC4)ncc23)CCO1,"Cell division cycle 7-related protein kinase (CDC7, Homo sapiens, UniProt O00311)",biochemical,,,,IC50,≥ 20 µM
C[C@@]12CC[C@H](O)C[C@@H]1CC[C@H]1[C@H]2CC[C@@]2(C)C(=O)CC[C@H]12,"GABA-A receptor; GABA-A site (alpha1/beta2 interface) (Homo sapiens, UniProt P14867+P47870)",,,,,EC50,16.3 µM
